{"data": "Results gathered from unrelated publications", "note": "Parts stem from different laboratories: compare values within a part only. Values joined by “and” are separate records of one study, mostly repeats; a detail may differ."}
{"data": "Study 1", "SMILES": "NC/C(=C\\F)COc1ccc(-c2cc(=O)[nH]c(=S)n2CC(N)=O)c(Cl)c1", "read-out": "enzyme activity", "AOC3": "Amine oxidase [copper-containing] 3 (AOC3, Homo sapiens, UniProt Q16853)", "MPO": "Myeloperoxidase (MPO, Homo sapiens, UniProt P05164)", "sequence of UniProt Q16853 (whole entry, looked up)": "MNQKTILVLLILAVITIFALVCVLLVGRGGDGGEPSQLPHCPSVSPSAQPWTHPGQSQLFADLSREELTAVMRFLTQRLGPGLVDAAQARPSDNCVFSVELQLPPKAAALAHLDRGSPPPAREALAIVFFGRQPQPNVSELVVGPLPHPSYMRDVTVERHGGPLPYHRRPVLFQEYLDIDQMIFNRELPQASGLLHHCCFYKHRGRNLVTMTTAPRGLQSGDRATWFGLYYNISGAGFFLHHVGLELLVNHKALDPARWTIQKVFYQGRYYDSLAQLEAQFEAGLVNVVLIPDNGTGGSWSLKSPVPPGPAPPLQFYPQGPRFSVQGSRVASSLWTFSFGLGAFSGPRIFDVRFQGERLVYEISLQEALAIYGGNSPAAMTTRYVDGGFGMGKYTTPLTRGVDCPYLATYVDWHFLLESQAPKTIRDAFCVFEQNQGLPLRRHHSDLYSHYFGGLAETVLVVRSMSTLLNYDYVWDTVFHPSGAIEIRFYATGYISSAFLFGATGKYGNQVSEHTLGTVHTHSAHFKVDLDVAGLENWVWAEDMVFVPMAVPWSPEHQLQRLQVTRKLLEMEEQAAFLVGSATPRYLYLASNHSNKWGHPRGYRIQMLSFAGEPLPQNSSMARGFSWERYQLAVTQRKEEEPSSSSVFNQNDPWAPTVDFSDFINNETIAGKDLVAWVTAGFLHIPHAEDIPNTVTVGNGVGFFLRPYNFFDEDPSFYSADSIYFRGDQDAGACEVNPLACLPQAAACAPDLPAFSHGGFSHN", "sequence of UniProt P05164 (whole entry, looked up)": "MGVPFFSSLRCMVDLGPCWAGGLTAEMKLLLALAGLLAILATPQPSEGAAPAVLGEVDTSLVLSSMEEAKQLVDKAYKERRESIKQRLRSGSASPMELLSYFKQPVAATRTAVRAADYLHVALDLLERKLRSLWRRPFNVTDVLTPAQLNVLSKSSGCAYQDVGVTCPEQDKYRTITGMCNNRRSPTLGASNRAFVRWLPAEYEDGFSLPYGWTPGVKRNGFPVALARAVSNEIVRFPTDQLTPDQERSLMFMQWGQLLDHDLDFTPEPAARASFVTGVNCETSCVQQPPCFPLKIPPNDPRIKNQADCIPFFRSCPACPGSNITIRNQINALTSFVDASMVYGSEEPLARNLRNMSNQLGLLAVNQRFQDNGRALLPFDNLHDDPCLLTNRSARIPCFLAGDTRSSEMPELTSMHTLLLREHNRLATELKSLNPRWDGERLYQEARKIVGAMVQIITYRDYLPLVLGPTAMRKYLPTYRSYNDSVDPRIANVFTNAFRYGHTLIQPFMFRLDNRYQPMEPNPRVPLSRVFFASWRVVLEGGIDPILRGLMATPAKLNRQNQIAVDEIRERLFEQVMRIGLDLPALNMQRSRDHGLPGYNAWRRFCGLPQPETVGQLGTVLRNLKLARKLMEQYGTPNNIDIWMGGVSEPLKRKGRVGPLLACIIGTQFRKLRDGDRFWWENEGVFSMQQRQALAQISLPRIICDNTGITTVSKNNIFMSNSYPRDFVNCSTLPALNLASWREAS"}
{"target": "AOC3", "test": "Amplex Red H2O2 production", "conditions": "1.111 µM", "inhibition": "95% and 95.2%"}
{"target": "MPO", "test": "inhibitor, fluorescence", "conditions": "1.5 nM", "inhibition": "-9.27%"}
{"target": "MPO", "test": "inhibitor, fluorescence", "conditions": "41.2 nM", "inhibition": "27.8%"}
{"target": "MPO", "test": "inhibitor, fluorescence", "conditions": "30 µM", "inhibition": "97.8%"}
{"target": "MPO", "test": "inhibitor, fluorescence", "conditions": "2.3 nM", "inhibition": "-1.64% and -7.54%"}
{"target": "MPO", "test": "inhibitor, fluorescence", "conditions": "3.333 µM", "inhibition": "89.1%"}
{"target": "MPO", "test": "inhibitor, fluorescence", "conditions": "6.9 nM", "inhibition": "-5.39% and 2.36%"}
{"target": "AOC3", "test": "inhibitor, fluorescence", "conditions": "1.111 µM", "inhibition": "95%"}
{"data": "Study 2", "SMILES": "Cc1ccc(O)c(C)c1-c1cnc2[nH]c(-c3cnc(N4CC5(CC(CN6CCN(c7ccc(NC8CCC(=O)NC8=O)cc7F)CC6)C5)C4)nc3)cc2c1C#N (stereo not shown)", "target": "Membrane-associated tyrosine- and threonine-specific cdc2-inhibitory kinase (PKMYT1, Homo sapiens, UniProt Q99640)", "Residues (Q99640 1-499)": "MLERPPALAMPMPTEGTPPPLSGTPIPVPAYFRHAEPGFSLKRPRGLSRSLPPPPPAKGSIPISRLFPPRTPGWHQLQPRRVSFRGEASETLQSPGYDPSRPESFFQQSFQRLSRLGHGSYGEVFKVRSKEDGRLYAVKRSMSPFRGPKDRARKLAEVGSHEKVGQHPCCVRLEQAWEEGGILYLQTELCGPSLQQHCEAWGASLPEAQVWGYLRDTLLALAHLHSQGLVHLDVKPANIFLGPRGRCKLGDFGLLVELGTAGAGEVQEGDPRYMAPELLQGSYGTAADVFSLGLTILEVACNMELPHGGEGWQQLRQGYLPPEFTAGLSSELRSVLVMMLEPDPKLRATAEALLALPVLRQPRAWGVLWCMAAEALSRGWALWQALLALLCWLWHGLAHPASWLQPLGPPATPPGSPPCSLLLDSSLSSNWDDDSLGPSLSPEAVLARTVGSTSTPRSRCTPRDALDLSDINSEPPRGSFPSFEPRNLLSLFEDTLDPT"}
{"conditions": "5.1e-05 µM", "inhibition [%]": -6.57}
{"conditions": "1 µM", "inhibition [%]": 99.1}
{"test": "cell-free assay, inhibitor, TR-FRET", "conditions": "460 pM", "inhibition [%]": 9.97}
{"test": "cell-free assay, inhibitor, TR-FRET", "conditions": "0.1111 µM", "inhibition [%]": 99.4}
{"test": "cell-free assay, inhibitor, TR-FRET", "conditions": "152 pM", "inhibition [%]": 2.84}
{"conditions": "0.3333 µM", "inhibition [%]": 99.3}
{"conditions": "0.000152 µM", "inhibition [%]": -0.84}
{"conditions": "0.00412 µM", "inhibition [%]": 64.5}
{"test": "cell-free assay, inhibitor, TR-FRET", "conditions": "4.12 nM", "inhibition [%]": 66.1}
{"test": "cell-free assay, inhibitor, TR-FRET", "conditions": "37.04 nM", "inhibition [%]": 98.1}
{"test": "cell-free assay, inhibitor, TR-FRET", "conditions": "1 µM", "inhibition [%]": 99.5}
{"test": "cell-free assay, inhibitor, TR-FRET", "conditions": "51 pM", "inhibition [%]": -1.39}
{"data": "Study 3", "Compound": "C[C@@H]1CN(c2ccc(-c3cc(C(=O)NCCOCCOCCOCCOCCNC(=O)/C=C/c4[nH]cc(C(=O)N[C@@H](CC(N)=O)c5ccc(F)c(Cl)c5)c4-c4ccc(Cl)cc4F)ccc3F)cc2NC(=O)c2c[nH]c(=O)cc2C(F)(F)F)C[C@H](C)N1C", "read-out": "thermal unfolding", "method": "differential scanning fluorimetry", "tested at": "5.5 µM", "reading": "higher = more unfolded", "DCAF1": "DDB1- and CUL4-associated factor 1 (DCAF1, Homo sapiens, UniProt Q9Y4B6)", "WDR5": "WD repeat-containing protein 5 (WDR5, Homo sapiens, UniProt P61964)", "sequence of UniProt Q9Y4B6 (whole entry, looked up)": "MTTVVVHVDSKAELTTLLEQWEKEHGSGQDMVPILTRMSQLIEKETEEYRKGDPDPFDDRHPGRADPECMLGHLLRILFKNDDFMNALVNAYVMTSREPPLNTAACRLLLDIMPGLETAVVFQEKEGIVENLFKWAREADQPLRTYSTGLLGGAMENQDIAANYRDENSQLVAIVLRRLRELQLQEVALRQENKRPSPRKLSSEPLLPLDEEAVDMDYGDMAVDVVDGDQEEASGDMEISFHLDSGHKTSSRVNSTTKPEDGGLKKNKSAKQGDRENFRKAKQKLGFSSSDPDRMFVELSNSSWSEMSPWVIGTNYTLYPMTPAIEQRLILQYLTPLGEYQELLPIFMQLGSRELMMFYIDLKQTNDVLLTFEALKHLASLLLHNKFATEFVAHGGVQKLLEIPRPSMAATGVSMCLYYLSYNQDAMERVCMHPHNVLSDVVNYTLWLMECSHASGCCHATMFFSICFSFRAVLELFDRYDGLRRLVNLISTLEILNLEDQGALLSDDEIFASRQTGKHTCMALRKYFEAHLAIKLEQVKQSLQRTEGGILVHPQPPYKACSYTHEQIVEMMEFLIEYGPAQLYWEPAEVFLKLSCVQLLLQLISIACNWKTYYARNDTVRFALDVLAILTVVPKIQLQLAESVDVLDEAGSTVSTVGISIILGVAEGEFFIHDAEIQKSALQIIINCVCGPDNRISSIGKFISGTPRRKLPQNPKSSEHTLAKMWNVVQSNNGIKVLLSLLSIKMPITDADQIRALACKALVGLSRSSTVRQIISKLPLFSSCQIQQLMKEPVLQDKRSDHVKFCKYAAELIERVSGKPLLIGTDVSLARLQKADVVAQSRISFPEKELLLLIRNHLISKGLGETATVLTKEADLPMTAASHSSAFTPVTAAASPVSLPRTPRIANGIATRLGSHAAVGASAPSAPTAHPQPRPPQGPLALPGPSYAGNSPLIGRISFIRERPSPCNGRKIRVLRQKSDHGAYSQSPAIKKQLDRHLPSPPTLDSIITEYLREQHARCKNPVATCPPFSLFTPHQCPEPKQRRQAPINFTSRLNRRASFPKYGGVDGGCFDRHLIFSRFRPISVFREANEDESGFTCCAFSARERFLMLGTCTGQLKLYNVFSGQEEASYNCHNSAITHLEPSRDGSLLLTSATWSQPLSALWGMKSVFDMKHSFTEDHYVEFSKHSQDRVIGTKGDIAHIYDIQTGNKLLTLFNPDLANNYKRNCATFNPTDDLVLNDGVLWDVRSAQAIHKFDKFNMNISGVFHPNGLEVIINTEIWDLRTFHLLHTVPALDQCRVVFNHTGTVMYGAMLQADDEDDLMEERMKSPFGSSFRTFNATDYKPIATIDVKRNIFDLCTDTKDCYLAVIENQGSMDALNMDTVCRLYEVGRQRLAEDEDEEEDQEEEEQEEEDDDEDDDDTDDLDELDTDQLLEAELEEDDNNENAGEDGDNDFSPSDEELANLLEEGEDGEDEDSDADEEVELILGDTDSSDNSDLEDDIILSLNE"}
{"target": "DCAF1", "conditions": "28.4 °C", "SYPRO Orange fluorescence": "9100 a.u."}
{"target": "DCAF1", "conditions": "47.4 °C", "SYPRO Orange fluorescence": "14100 a.u."}
{"target": "WDR5", "conditions": "59.01 °C", "SYPRO Orange fluorescence": "16000 a.u."}
{"target": "DCAF1", "conditions": "85.61 °C", "SYPRO Orange fluorescence": "39500 a.u."}
{"target": "WDR5", "conditions": "91.41 °C", "SYPRO Orange fluorescence": "49200 a.u."}
{"target": "WDR5", "conditions": "61.21 °C", "SYPRO Orange fluorescence": "15300 a.u."}
{"target": "DCAF1", "conditions": "62.21 °C", "SYPRO Orange fluorescence": "50900 a.u."}
{"target": "DCAF1", "conditions": "66.21 °C", "SYPRO Orange fluorescence": "59400 a.u."}
{"data": "Mixed results"}
{"Compound": "Cc1ncsc1-c1ccc(C2(NC(=O)C3CC(O)CN3C(=O)C(NC(=O)c3ccc(COc4c(-c5c(C)c(F)cc6[nH]ncc56)c(C5CC5)cc5c(N6CC7CC6CN7)nc(OC6CCOCC6)nc45)cc3)C(C)(C)C)CC2)cc1 (stereo not shown)", "tested on": "von Hippel-Lindau disease tumor suppressor, with Elongin B/C (VHL, Homo sapiens, UniProt P40337)", "test": "SPR, single-cycle", "system": "immobilized VCB complex", "conditions": "binary, geometric mean", "endpoint": "koff", "result": "0.045 s⁻¹"}
{"Compound": "Cc1ncsc1-c1ccc(C(CO)NC(=O)C2CC(O)CN2C(=O)C(NC(=O)c2ccc(COc3c(-c4c(C)c(F)cc5[nH]ncc45)c(C4CC4)cc4c(N5CC6CC5CN6)nc(OC5CCOCC5)nc34)cc2)C(C)C)cc1 (stereo not shown)", "tested on": "ASPC1", "test": "cell growth or viability, ATP luminescence", "endpoint": "IC50", "result": "128 nM"}
{"Compound": "CCN1CCN(Cc2ccc(COc3c(-c4c(C)c(F)cc5[nH]ncc45)c(C4CC4)cc4c(N5C[C@@H]6C[C@H]5CN6)nc(OC5CCOCC5)nc34)cc2)C(=O)C1", "tested on": "GTPase KRas, GDP-bound (KRAS, Homo sapiens, UniProt P01116, G12D)", "test": "SPR, multi-cycle", "system": "immobilized KRAS G12D", "conditions": "binary, geometric mean", "endpoint": "kon", "result": "3.58e+06 M⁻¹ s⁻¹"}
{"note": "Some of these lines once more (mixed results):"}
{"Compound": "Cc1ncsc1-c1ccc(C2(NC(=O)C3CC(O)CN3C(=O)C(NC(=O)c3ccc(COc4c(-c5c(C)c(F)cc6[nH]ncc56)c(C5CC5)cc5c(N6CC7CC6CN7)nc(OC6CCOCC6)nc45)cc3)C(C)(C)C)CC2)cc1 (stereo not shown)", "tested on": "von Hippel-Lindau disease tumor suppressor, with Elongin B/C (VHL, Homo sapiens, UniProt P40337)", "test": "SPR, single-cycle", "system": "immobilized VCB complex", "conditions": "binary, geometric mean", "endpoint": "koff", "result": "0.045 s⁻¹"}
{"Compound": "Cc1ncsc1-c1ccc(C(CO)NC(=O)C2CC(O)CN2C(=O)C(NC(=O)c2ccc(COc3c(-c4c(C)c(F)cc5[nH]ncc45)c(C4CC4)cc4c(N5CC6CC5CN6)nc(OC5CCOCC5)nc34)cc2)C(C)C)cc1 (stereo not shown)", "tested on": "ASPC1", "test": "cell growth or viability, ATP luminescence", "endpoint": "IC50", "result": "128 nM"}
{"Compound": "CCN1CCN(Cc2ccc(COc3c(-c4c(C)c(F)cc5[nH]ncc45)c(C4CC4)cc4c(N5C[C@@H]6C[C@H]5CN6)nc(OC5CCOCC5)nc34)cc2)C(=O)C1", "tested on": "GTPase KRas, GDP-bound (KRAS, Homo sapiens, UniProt P01116, G12D)", "test": "SPR, multi-cycle", "system": "immobilized KRAS G12D", "conditions": "binary, geometric mean", "endpoint": "kon", "result": "3.58e+06 M⁻¹ s⁻¹"}
